Published values collected from several papers.
Protocols differ between the studies behind these lines.
Technique: steady-state kinetics
B1: enzyme (Papaver somniferum, UniProt Q9SQ68); chain MESNGVPMITLSSGIRMPALGMGTAETMVKGTEREKLAFLKAIEVGYRHFDTAAAYQSEECLGEAIAEALQLGLIKSRDELFITSKLWCADAHADLVLPALQNSLRNLKLDYLDLYLIHHPVSLKPGKFVNEIPKDHILPMDYKSVWAAMEECQTLGFTRAIGVCNFSCKKLQELMAAAKIPPVVNQVEMSPTLHQKNLREYCKANNIMITAHSVLGAICAPWGSNAVMDSKVLHQIAVARGKSVAQVSMRWVYQQGASLVVKSFNEGRMKENLKIFDWELTAENMEKISEIPQSRTSSADFLLSPTGPFKTEEEFWDEKD
B2: CPN1 (Homo sapiens, UniProt P15169); chain VTFRHHRYDDLVRTLYKVQNECPGITRVYSIGRSVEGRHLYVLEFSDHPGIHEPLEPEVKYVGNMHGNEALGRELMLQLSEFLCEEFRNRNQRIVQLIQDTRIHILPSMNPDGYEVAAAQGPNKPGYLVGRNNANGVDLNRNFPDLNTYIYYNEKYGGPNHHLPLPDNWKSQVEPETRAVIRWMHSFNFVLSANLHGGAVVANYPYDKSFEHRVRGVRRTASTPTPDDKLFQKLAKVYSYAHGWMFQGWNCGDYFPDGITNGASWYSLSKGMQDFNYLHTNCFEITLELSCDKFPPEEELQREWLGNREALIQFLEQVHQGIKGMVLDENYNNLANAVISVSGINHDVTSGDHGDYFRLLLPGIYTVSATAPGYDPETVTVTVGPAEPTLVNFHLKRSIPQVSPVRRAPSRRHGVRAKVQPQARKKEMEMRQLQRGPA
B3: enzyme N249W (Thermobifida fusca, UniProt Q47RK4); chain MTDVYILDAVRTPFGRYGGALSGIRPDDLAAHVLRALAERSPGLDPAAVDDVFFGDANGAGEDNRNVARMAALLAGWPTSVPGVTLNRLCGSGMESVIAANRAIAVGDASLAVAGGVESMSRAPWVLPKPAQGFPTGHETLYSTTLGWRMVNPAMPEQWTVSLGESTEQVAATYGISRAEQDAFALRSHERAARAWAEGVFDAEITQIPGAELERDESIRETSAEKLAALKPAFRPDGTITAGNASPLWDGAAALLIGDAAAAERVGREPLARIVSRGVAAVDPDVFGIGPVQAAEIALRRAGIGWDDLSVVELNEAFAAQSLACLKLWPDLDPEIVNPNGGAIAIGHPLGASGARIVGTLAHELHRRGGGWGLAAICIGVGQGLAVVLHR
B4: nitrilase (Rhodococcus rhodochrous, UniProt A4LA85); chain MVEYTNTFKVAAVQAQPVWFDAAKTVDKTVSIIAEAARNGCELVAFPEVFIPGYPYHIWVDSPLAGMAKFAVRYHENSLTMDSPHVQRLLDAARDHNIAVVVGISERDGGSLYMTQLIIDADGQLVARRRKLKPTHVERSVYGEGNGSDISVYDMPFARLGALNCWEHFQTLTKYAMYSMHEQVHVASWPGMSLYQPEVPAFGVDAQLTATRMYALEGQTFVVCTTQVVTPEAHEFFCENEEQRKLIGRGGGFARIIGPDGRDLATPLAEDEEGILYADIDLSAITLAKQAADPVGHYSRPDVLSLNFNQRRTTPVNTPLSTIHATHTFVPQFGALDGVRELNGADEQRALPSTHSDETDRATASI
B5: enzyme H189A (Acetivibrio thermocellus, UniProt A3DJ38); chain MKLTIPELSLVVLIGSSGSGKSTFAKKHFKPTEVISSDFCRGLVSDDENDQTVTGAAFDVLHYIVSKRLQLGKLTVVDATNVQESARKPLIEIAKDYHCFPVAVVFNLPEKVCQERNKNRTDRQVEEYVIRKHTQQLKKSIKGLQREGFRYVYILNSPEEVEEVVFERQPLWNNKKDEHGPFDIIGDIAGCYDELKMLLEKLGYLIEEVEGGVGSGKYRVTHPEGRKVLFLGDLVDRGPKITEVLKLVMGMVKSGIALCVPGNHDVKLLRKLNGRDVQITHGLDRTLEQLAKEPQEFIEEVKAFIDGLVSHYVLDDGKLVVAHAGMKEEFQGRGSGKVREFALYGETTGETDEYGLPVRYDWASDYRGKALVVYGHTPQAEVLKVNNTINIDTGCVFGGKLTAYRYPEREIVDVKALKTYYEPAKPFLPKEDMAERFEARTDNDILDINDVLGKKIITTRLMSSITIHEENSIAALEVMSRFAADPHWLIYLPPTMSPCETSKKEGMLEHPIEAFEYFRTRGVGKVVCEQKHMGSRAVVIVCKDSQVAEKRFGVLDGTAGICYTRTGRHFFDDMQLEAELIDRVRKVLDKSGFWGDFNTDWVCLDCELMPWSAKAQKLLEEQYSAVGISGRVVLDEAVKLLKQASLNKTVSFDVSRQTSGKNADINELLQRFTERSEMMQKYVEAYRKYCWPVNSIDDLKLAPFHILATEGKVHSDKNHIWHMDTIAKYCTQDDSLIMATNHILVDVTDAESVDKGIKWWEDLTASGGEGMVVKPYDFIVKNGRELLQPAVKCRGREYLRIIYGPEYTMDENIERLRNRAVGKKRSLALREFSLGMEALERFVRNEPLYRVHECVFGVLALESEPVDPRL
B6: enzyme Q449A (Limosilactobacillus reuteri, UniProt Q8GP32); chain SADTNIENNDSSTVQVTTGDNDIAVKSVTLGSGQVSAASDTTIRTSANANSASSAANTQNSNSQVASSAAITSSTSSAASSNNTDSKAAQENTNTAKNDDTQKAAPANESSEAKNEPAVNVNDSSAAKNDDQQSSKKNTTAKLNKDAENVVKKAGIDPNSLTDDQIKALNKMNFSKAAKSGTQMTYNDFQKIADTLIKQDGRYTVPFFKASEIKNMPAATTKDAQTNTIEPLDVWDSWPVQDVRTGQVANWNGYQLVIAMMGIPNQNDNHIYLLYNKYGDNELSHWKNVGPIFGYNSTAVSQEWSGSAVLNSDNSIQLFYTRVDTSDNNTNHQKIASATLYLTDNNGNVSLAQVANDHIVFEGDGYYYQTYDQWKATNKGADNIAMRDAHVIEDDNGDRYLVFEASTGLENYAGEDQIYNWLNYGGDDAFNIKSLFRILSNDDIKSRATWANAAIGILKLNKDEKNPKVAELYSPLISAPMVSDEIERPNVVKLGNKYYLFAATRLNRGSNDDAWMNANYAVGDNVAMVGYVADSLTGSYKPLNDSGVVLTASVPANWRTATYSYYAVPVAGKDDQVLVTSYMTNRNGVAGKGMDSTWAPSFLLQINPDNTTTVLAKMTNQGDWIWDDSSENLDMIGDLDSAALPGERDKPVDWDLIGYGLKP
B7: enzyme (Delftia acidovorans, UniProt A9BQX8); chain MVADSRLPNFRALTPAQRRDFLADACGLSDAERALLAAPGALPLALADGMIENVFGSFELPLGVAGNFRVNGRDVLVPMAVEEPSVVAAASYMAKLAREDGGFQTSSTLPLMRAQVQVLGVTDPHGARLAVLQARAQIIERANSRDKVLIGLGGGCKDIEVHVFPDTPRGPMLVVHLIVDVRDAMGANTVNTMAESVAPLVEKITGGSVRLRILSNLADLRLARARVRLTPQTLATQDRSGEEIIEGVLDAYTFAAIDPYRAATHNKGIMNGIDPVIVATGNDWRAVEAGAHAYASRSGSYTSLTRWEKDAGGALVGSIELPMPVGLVGGATKTHPLARLALKIMDLQSAQQLGEIAAAVGLAQNLGALRALATEGIQRGHMALHARNIALVAGATGDEVDAVARQLAAEHDVRTDRALEVLAALRARA
B8: XKS1 (Saccharomyces cerevisiae, UniProt P42826); chain MLCSVIQRQTREVSNTMSLDSYYLGFDLSTQQLKCLAINQDLKIVHSETVEFEKDLPHYHTKKGVYIHGDTIECPVAMWLEALDLVLSKYREAKFPLNKVMAVSGSCQQHGSVYWSSQAESLLEQLNKKPEKDLLHYVSSVAFARQTAPNWQDHSTAKQCQEFEECIGGPEKMAQLTGSRAHFRFTGPQILKIAQLEPEAYEKTKTISLVSNFLTSILVGHLVELEEADACGMNLYDIRERKFSDELLHLIDSSSKDKTIRQKLMRAPMKNLIAGTICKYFIEKYGFNTNCKVSPMTGDNLATICSLPLRKNDVLVSLGTSTTVLLVTDKYHPSPNYHLFIHPTLPNHYMGMICYCNGSLARERIRDELNKERENNYEKTNDWTLFNQAVLDDSESSENELGVYFPLGEIVPSVKAINKRVIFNPKTGMIEREVAKFKDKRHDAKNIVESQALSCRVRISPLLSDSNASSQQRLNEDTIVKFDYDESPLRDYLNKRPERTFFVGGASKNDAIVKKFAQVIGATKGNFRLETPNSCALGGCYKAMWSLLYDSNKIAVPFDKFLNDNFPWHVMESISDVDNENWDRYNSKIVPLSELEKTLI
B9: STH1425 H227V (Symbiobacterium thermophilum, UniProt Q67PI3); chain MDKLRVAVVGYGNVGRYALEAVQAAPDMELVGVVRRKVLAATPPELTGVRVVTDISQLEGVQGALLCVPTRSVPEYAEAMLRRGIHTVDSYDIHGDLADLRRRLDPVAREHGAAAVISAGWDPGTDSIIRALLEFMAPKGITYTNFGPGMSMGHSVAVKAIPGVRDALSMTIPAGMGVHKRAVYVELEPGADFAEVERAIKTDPYFVRDETRVTQVESVSALMDVGVGVVMERKGVSGATHNQLFRFEMRINNPALTAQVMVAALRAAARQKPGCYTMIEIPVIDYLPGDREAWIRKLV
B10: protein F432Y (Streptomyces toyocaensis, UniProt Q8KLK7); chain MTTVLPPLEDTDGLWAALTEAAASVEKLLATLPEHGARSSAERAEIAAAHDAARALRVRFLDTHADAVYDRLTDHRRVHLRLAELVEAAATAFPGLVPTQQQLAVERSLPQAAKEGHEIDQGIFLRAVLRSPLAGPHLLDAMLRPTPRALELLPEFVRTGEVEMEAVHLERRDGVARLTMCRDDRLNAEDGQQVDDMETAVDLALLDPGVRVGLLRGGVMSHPRYRGKRVFSAGINLKYLSQGGISLVDFLMRRELGYIHKLVRGVLTNDDRPGWWHSPRIEKPWVAAVDGFAIGGGAQLLLVFDRVLASSDAYFSLPAAKEGIIPGAANLRLGRFAGPRVSRQVILEGRRIWAKEPEARLLVDEVVEPDELDAAIERSLTRLDGDAVLANRRMLNLADESPDGFRAYMAEFALMQALRLYGHDVIDKVGRYGGRPPA

plcB (Listeria monocytogenes, UniProt P33378)
Km (CCCCCCC(=O)OC[C@H](COP(=O)([O-])OCC[N+](C)(C)C)OC(=O)CCCCCC; pH 6, 37 °C): 200 µM

enzyme (Streptococcus pyogenes, UniProt Q5XDW3)
Km (NC(=O)c1ccc[n+]([C@@H]2O[C@H](COP(=O)(O)OP(=O)(O)OC[C@H]3O[C@@H](n4cnc5c(N)ncnc54)[C@H](O)[C@@H]3O)[C@@H](O)[C@H]2O)c1; pH 8.6): 157 µM

azu N36H/Q28H/Q34H (Pseudomonas aeruginosa)
Km (O=NO; pH 6.35): 46000 µM

B1 (enzyme)
Km (COc1ccc2c3c1O[C@H]1[C@@H](O)C=C[C@H]4[C@@H](C2)N(C)CC[C@@]341): 49.9 µM

B2 (CPN1)
Km (C[C@H](NC(=O)[C@H](Cc1ccccc1)NC(=O)[C@H](CCC(N)=O)NC(=O)CNC(=O)[C@@H]1CCCN1C(=O)[C@H](Cc1ccccc1)NC(=O)[C@@H](N)Cc1ccc(O)cc1)C(=O)N[C@@H](Cc1ccccc1)C(=O)N[C@@H](CO)C(=O)N[C@@H](CCCCN)C(=O)O; 37 °C): 171 µM

B3 (enzyme N249W)
Km (CC(C)(COP(=O)(O)OP(=O)(O)OC[C@H]1O[C@@H](n2cnc3c(N)ncnc32)[C@H](O)[C@@H]1OP(=O)(O)O)[C@@H](O)C(=O)NCCC(=O)NCCSC(=O)CCC(=O)O; pH 7.4, 37 °C): 1370 µM

B4 (nitrilase)
Km (N#CCCCCC#N; pH 7.5, 25 °C): 933 µM

B5 (enzyme H189A)
Km (Nc1ncnc2c1ncn2[C@@H]1O[C@H](CO)[C@H]2OP(=O)(O)O[C@H]21; pH 7.5, 45 °C): 29000 µM

B6 (enzyme Q449A)
Km (OC[C@H]1O[C@@](CO)(O[C@H]2O[C@H](CO)[C@@H](O)[C@H](O)[C@H]2O)[C@@H](O)[C@@H]1O; pH 5.5, 50 °C, apparent): 21000 µM

B7 (enzyme)
Km (NC(=O)C1=CN([C@@H]2O[C@H](COP(=O)(O)OP(=O)(O)OC[C@H]3O[C@@H](n4cnc5c(N)ncnc54)[C@H](O)[C@@H]3O)[C@@H](O)[C@H]2O)C=CC1; cofactor varied): 28.5 µM

B8 (XKS1)
Km (Nc1ncnc2c1ncn2[C@@H]1O[C@H](COP(=O)(O)OP(=O)(O)OP(=O)(O)O)[C@@H](O)[C@H]1O; pH 7.4, 30 °C, KCl 50 mM, added: D-xylulose 5.00 mM): 1700 µM

B9 (STH1425 H227V)
Km (O=C(O)C(=O)Cc1ccccc1; pH 9, 30 °C, reductive amination, added: NH4Cl 200 mM, NADPH 0.5 mM): 12500 µM

protein I196L (UniProt Q52060)
Km (CC=O; lysate; not purified, added: CoA, NAD+): 20300 µM

OXA-48 (Klebsiella pneumoniae, UniProt Q6XEC0)
Km (C[C@@H](O)[C@H]1C(=O)N2C(C(=O)O)=C(SCCN=CN)C[C@H]12; pH 7.2, 30 °C): 3.7 µM

wbpB (Pseudomonas aeruginosa, UniProt G3XD23)
Km (O=C(O)CCC(=O)C(=O)O; pH 8.5, 25 °C): 1350 µM

B10 (protein F432Y)
Km (CC(C)(COP(=O)(O)OP(=O)(O)OC[C@H]1O[C@@H](n2cnc3c(N)ncnc32)[C@H](O)[C@@H]1OP(=O)(O)O)[C@@H](O)C(=O)NCCC(=O)NCCSC(=O)Cc1cc(O)cc(O)c1; pH 7.5, 24 °C, added: O2): 1.9 µM
